Results collected from several papers.
Each numbered part is a random draw from the data of one study; scales do not carry over between parts. Several values in a cell are separate wells, animals, samples, runs or records.
UniProt Q96BR1, sequence (whole entry, looked up): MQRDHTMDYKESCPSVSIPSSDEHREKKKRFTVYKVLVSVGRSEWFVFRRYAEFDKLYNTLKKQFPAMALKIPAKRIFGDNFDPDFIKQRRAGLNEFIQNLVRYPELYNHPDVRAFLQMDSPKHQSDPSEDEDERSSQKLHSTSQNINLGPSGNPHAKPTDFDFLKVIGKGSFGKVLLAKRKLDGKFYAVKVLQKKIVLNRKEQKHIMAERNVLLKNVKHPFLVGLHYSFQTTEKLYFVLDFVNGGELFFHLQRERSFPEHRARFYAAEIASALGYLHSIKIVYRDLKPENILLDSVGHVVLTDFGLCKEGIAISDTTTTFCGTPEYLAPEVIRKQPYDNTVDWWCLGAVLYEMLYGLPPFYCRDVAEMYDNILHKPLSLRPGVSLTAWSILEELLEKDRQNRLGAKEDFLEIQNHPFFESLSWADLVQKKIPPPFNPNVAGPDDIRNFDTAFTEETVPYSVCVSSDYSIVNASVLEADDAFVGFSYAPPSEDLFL
UniProt Q99683, sequence (whole entry, looked up): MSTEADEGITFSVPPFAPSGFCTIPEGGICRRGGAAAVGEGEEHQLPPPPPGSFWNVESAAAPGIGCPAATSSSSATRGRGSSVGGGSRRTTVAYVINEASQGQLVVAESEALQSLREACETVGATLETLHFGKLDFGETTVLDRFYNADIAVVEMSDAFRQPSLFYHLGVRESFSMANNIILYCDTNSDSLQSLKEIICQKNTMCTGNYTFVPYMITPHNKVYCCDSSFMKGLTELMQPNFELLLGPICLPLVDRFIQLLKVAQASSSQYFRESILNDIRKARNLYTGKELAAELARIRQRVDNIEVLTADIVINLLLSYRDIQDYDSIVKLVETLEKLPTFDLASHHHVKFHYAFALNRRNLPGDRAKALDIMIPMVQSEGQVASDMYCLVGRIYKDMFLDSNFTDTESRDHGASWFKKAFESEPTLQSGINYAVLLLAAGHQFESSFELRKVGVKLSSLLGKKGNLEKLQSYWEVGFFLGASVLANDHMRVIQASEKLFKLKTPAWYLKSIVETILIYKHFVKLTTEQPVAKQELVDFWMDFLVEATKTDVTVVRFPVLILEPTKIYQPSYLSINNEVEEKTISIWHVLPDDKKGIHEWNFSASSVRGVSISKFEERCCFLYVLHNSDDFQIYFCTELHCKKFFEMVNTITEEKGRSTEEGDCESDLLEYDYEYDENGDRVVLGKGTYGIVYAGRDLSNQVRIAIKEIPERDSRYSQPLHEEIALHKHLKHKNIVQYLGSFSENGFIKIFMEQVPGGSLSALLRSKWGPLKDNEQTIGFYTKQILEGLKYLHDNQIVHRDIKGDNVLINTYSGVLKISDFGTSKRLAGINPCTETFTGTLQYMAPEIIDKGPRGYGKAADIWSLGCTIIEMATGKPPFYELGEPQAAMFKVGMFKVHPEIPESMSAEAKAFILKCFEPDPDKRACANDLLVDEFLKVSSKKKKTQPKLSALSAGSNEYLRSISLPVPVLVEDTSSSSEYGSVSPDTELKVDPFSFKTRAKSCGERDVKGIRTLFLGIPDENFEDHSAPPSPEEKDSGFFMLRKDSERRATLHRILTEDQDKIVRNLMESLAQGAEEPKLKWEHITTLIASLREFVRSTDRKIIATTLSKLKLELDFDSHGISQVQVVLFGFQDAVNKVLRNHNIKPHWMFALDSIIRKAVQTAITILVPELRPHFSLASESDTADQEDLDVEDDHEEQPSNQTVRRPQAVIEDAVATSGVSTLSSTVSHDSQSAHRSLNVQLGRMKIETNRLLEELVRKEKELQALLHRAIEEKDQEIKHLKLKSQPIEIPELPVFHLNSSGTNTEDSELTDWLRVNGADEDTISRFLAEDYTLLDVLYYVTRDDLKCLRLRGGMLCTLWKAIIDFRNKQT
UniProt P36896, sequence (whole entry, looked up): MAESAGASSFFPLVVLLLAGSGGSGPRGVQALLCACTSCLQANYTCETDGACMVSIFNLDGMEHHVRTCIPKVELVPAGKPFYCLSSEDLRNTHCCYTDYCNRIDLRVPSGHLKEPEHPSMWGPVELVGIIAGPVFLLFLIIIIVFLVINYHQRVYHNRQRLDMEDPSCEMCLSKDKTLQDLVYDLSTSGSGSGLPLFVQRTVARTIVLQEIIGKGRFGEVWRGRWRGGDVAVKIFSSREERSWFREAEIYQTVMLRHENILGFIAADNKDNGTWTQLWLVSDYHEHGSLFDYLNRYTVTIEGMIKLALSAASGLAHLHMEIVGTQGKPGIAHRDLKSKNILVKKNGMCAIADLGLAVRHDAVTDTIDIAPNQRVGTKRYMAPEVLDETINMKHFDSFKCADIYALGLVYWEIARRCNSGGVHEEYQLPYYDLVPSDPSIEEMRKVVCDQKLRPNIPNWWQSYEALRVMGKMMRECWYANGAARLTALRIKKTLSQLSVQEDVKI
UniProt P15056, sequence (whole entry, looked up): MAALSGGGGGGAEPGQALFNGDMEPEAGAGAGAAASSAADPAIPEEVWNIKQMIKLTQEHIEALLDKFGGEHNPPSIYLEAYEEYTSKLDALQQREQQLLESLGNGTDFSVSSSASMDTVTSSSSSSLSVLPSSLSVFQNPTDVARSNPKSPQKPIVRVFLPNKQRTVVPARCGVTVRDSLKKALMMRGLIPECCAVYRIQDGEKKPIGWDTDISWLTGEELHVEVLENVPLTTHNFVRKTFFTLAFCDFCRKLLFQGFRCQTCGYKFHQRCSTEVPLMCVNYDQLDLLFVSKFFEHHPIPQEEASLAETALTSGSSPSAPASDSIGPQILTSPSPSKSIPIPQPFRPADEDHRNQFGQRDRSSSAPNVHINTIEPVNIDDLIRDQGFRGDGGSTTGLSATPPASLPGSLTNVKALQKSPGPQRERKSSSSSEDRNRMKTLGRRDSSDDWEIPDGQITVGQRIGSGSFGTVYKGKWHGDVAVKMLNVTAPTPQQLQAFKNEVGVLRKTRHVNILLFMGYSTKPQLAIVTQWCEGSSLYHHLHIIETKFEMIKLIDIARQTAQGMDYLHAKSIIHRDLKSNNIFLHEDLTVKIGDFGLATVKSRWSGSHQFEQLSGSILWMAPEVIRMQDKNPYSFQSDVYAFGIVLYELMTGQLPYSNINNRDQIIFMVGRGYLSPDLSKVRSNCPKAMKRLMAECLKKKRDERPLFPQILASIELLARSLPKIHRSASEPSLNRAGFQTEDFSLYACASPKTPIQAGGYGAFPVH

Series 1
Structure (SMILES): CCN1/C(=C/C=C2\CCCC(/C=C/C3=[N+](CC)c4ccccc4C3(C)C)=C2NCCCCCCCCN2CCC(Nc3nc4ccccc4n3Cc3ccc(F)cc3)CC2)C(C)(C)c2ccccc21
Cell line: U-87 MG
Concentration: concentration not given
Relative to: DMSO
| item | log2 fold change |
| --- | --- |
| FOXP2 mRNA | 1.52 |
| RNF43 mRNA | -1.54 |
| COL8A2 mRNA | -2.34 |
| CCNB1IP1 mRNA | 1.19 |
| DNAJC22 mRNA | -1.28 |
| XIRP1 mRNA | 6.27 |
| ID3 mRNA | -2.25 |
| APOL3 mRNA | -1.55 |
| OIP5 mRNA | -1.78 |
| ARL6IP1 mRNA | -1.05 |
| DEPDC1 mRNA | -1.31 |
| TOLLIP mRNA | 1.04 |
| EFCAB13 mRNA | 0.955 |
| MEF2C mRNA | 1.01 |
| ARMCX3 mRNA | 1.03 |
| HMGB2 mRNA | -1.35 |

Series 2
Structure (SMILES): O=C(Nc1ccccc1)Nc1cccc(Oc2ccc3nccn3n2)c1
Concentration: 1 µM
| target | observed | technique | remaining binding [%] |
| --- | --- | --- | --- |
| Epithelial discoidin domain-containing receptor 1 (DDR1, Homo sapiens, UniProt Q08345) | binding | competition with immobilised ligand | 2.2 |
| Mitogen-activated protein kinase kinase kinase 5 (MAP3K5, Homo sapiens, UniProt Q99683) | binding | – | 100 |
| Tyrosine-protein kinase Lck (LCK, Homo sapiens, UniProt P06239) | binding | competition with immobilised ligand | 67 |
| Myosin light chain kinase 2, skeletal/cardiac muscle (MYLK2, Homo sapiens, UniProt Q9H1R3) | – | cell-free binding | 100 |
| TRAF2 and NCK-interacting protein kinase (TNIK, Homo sapiens, UniProt Q9UKE5) | binding | competition with immobilised ligand | 93 |
| Activin receptor type-1B (ACVR1B, Homo sapiens, UniProt P36896) | binding | competition with immobilised ligand | 100 |
| Phosphatidylinositol 4,5-bisphosphate 3-kinase catalytic subunit beta isoform (PIK3CB, Homo sapiens, UniProt P42338) | binding | – | 100 |
| Serine/threonine-protein kinase B-raf (BRAF, Homo sapiens, UniProt P15056) | binding | competition with immobilised ligand | 76 |
| Serine/threonine-protein kinase Sgk3 (SGK3, Homo sapiens, UniProt Q96BR1) | binding | – | 91 |
| SRSF protein kinase 2 (SRPK2, Homo sapiens, UniProt P78362) | binding | – | 97 |
| Serine/threonine-protein kinase PLK1 (PLK1, Homo sapiens, UniProt P53350) | binding | – | 67 |
| Receptor tyrosine-protein kinase erbB-4 (ERBB4, Homo sapiens, UniProt Q15303) | binding | competition with immobilised ligand | 100 |

Series 3
Compound: Cc1ncsc1-c1ccc(C(CO)NC(=O)C2CC(O)CN2C(=O)C(C(C)C)n2cc(-c3ccc(COc4c(-c5c(C)c(F)cc6[nH]ncc56)c(C5CC5)cc5c(N6CC7CC6CN7)nc(OC6CCOCC6)nc45)cc3)nn2)cc1 (stereo not shown)
Technique: qRT-PCR
Host: mouse, PK-59 xenograft
Matrix: tumour
Notes: unit not given
| item | route | dose | time | relative to | mRNA level |
| --- | --- | --- | --- | --- | --- |
| SPRY4 | intravenous | 10 mg/kg | 48 h | vehicle, same time point | 0.00167 and 0.00124 and 0.000945 |
| DUSP4 | – | 30 mg/kg | 24 h | vehicle | 0.194 and 0.112 and 0.145 |
| FOSL1 | – | 10 mg/kg | 72 h | vehicle | 0.149 and 0.134 and 0.147 |
| MYC | intravenous | 10 mg/kg | 2 h | vehicle, same time point | 0.0607 and 0.0417 and 0.0677 |
| DUSP6 | – | 10 mg/kg | 144 h | vehicle | 0.422 and 0.581 and 0.332 |
| SPRY4 | – | 30 mg/kg | 48 h | vehicle | 0.033 and 0.0334 and 0.06 and 0.0599 |
| MYC | intravenous | 10 mg/kg | 6 h | vehicle, same time point | 0.0394 and 0.0363 and 0.0255 |

Series 4
Compound: C[C@@H]1CN(c2ccc(-c3cc(C(=O)NCCOCCOCCOCCOCCNC(=O)Cn4cc(-c5[nH]cc(C(=O)N[C@@H](CC(N)=O)c6ccc(F)c(Cl)c6)c5-c5ccc(Cl)cc5F)cn4)ccc3F)cc2NC(=O)c2c[nH]c(=O)cc2C(F)(F)F)C[C@H](C)N1C
Observed: thermal unfolding
Technique: differential scanning fluorimetry
Concentration: 5.5 µM
Direction: higher = more unfolded
DCAF1: DDB1- and CUL4-associated factor 1 (DCAF1, Homo sapiens, UniProt Q9Y4B6)
UniProt Q9Y4B6, sequence (whole entry, looked up): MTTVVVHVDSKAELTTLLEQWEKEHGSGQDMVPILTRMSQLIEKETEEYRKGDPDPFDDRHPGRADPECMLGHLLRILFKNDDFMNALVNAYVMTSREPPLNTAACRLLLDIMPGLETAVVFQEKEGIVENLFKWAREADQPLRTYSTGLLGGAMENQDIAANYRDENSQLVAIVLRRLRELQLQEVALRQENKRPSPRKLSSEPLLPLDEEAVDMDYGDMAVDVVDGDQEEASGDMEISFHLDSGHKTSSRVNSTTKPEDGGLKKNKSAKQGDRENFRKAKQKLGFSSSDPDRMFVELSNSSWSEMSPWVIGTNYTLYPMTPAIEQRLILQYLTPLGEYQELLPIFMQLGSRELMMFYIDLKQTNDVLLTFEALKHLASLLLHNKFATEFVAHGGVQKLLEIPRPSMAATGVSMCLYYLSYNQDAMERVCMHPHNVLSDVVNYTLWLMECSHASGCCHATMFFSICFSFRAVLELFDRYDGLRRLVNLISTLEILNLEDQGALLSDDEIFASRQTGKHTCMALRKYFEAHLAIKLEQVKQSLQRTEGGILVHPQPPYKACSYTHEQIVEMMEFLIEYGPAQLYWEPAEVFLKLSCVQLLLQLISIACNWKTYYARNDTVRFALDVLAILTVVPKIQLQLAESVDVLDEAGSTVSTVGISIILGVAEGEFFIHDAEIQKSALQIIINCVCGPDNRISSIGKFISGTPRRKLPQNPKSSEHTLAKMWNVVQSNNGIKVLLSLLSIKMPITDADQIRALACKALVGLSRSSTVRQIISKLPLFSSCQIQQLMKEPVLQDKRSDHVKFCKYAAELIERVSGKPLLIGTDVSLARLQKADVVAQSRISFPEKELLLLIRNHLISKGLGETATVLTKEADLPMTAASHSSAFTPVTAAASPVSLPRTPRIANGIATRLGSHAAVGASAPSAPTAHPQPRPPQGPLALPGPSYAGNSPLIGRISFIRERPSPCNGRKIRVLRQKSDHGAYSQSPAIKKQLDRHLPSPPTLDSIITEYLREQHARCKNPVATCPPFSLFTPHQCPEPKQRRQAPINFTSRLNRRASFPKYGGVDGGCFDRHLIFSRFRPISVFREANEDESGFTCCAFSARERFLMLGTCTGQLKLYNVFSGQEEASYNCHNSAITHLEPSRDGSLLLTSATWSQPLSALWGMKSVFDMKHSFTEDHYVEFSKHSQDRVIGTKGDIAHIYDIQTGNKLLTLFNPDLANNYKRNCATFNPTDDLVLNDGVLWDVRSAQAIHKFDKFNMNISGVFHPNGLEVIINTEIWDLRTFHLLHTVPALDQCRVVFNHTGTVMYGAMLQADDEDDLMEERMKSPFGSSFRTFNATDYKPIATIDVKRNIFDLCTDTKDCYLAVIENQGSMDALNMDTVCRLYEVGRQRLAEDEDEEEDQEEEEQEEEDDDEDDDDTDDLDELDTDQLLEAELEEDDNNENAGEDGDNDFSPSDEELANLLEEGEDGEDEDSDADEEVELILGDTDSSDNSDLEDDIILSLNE
WDR5: WD repeat-containing protein 5 (WDR5, Homo sapiens, UniProt P61964)
| target | temperature | SYPRO Orange fluorescence |
| --- | --- | --- |
| DCAF1 | 49.4 °C | 14200 a.u. |
| WDR5 | 52.61 °C | 14400 a.u. |
| DCAF1 | 60.21 °C | 38900 a.u. |
| DCAF1 | 85.21 °C | 39500 a.u. |
| DCAF1 | 69.41 °C | 55000 a.u. |
| DCAF1 | 39 °C | 9920 a.u. |
| WDR5 | 51.6 °C | 14400 a.u. |
| DCAF1 | 48 °C | 13500 a.u. |
| DCAF1 | 77.61 °C | 46400 a.u. |
| WDR5 | 64.01 °C | 8170 a.u. |
| WDR5 | 47.8 °C | 14400 a.u. |

A few entries again (series 2):
| target | observed | technique | remaining binding [%] |
| --- | --- | --- | --- |
| Tyrosine-protein kinase Lck (LCK, Homo sapiens, UniProt P06239) | binding | competition with immobilised ligand | 67 |
| Phosphatidylinositol 4,5-bisphosphate 3-kinase catalytic subunit beta isoform (PIK3CB, Homo sapiens, UniProt P42338) | binding | – | 100 |
| Serine/threonine-protein kinase PLK1 (PLK1, Homo sapiens, UniProt P53350) | binding | – | 67 |
| Serine/threonine-protein kinase B-raf (BRAF, Homo sapiens, UniProt P15056) | binding | competition with immobilised ligand | 76 |
